{"data": "Measurements collected from several papers", "note": "Every numbered part comes from another study and shows a few of its results, in no order. Positions count from the first letter of the parent shown."}
{"data": "Set 1", "target": "Interferon regulatory factor 5, full length, phosphomimetic (IRF5, Homo sapiens, UniProt Q13568-2, residues 1-514, S451D/S453D/S456D/S462D)", "technique": "protein-binding microarray", "molecule type": "double-stranded DNA, one strand shown", "medium": "in vitro", "concentration": "940 nM top", "notes": "60-bp whole probe", "added": "salmon DNA 0.4 mg/ml", "reference": "random background probes", "direction": "higher = stronger binding", "shared flanks, not repeated": "GCCTAGCAC … GTCTTGATTCGCTTGACGCTGCTG"}
{"Sequence": "GCAACACTCACCATGGCTAGGTGCTAG", "fitted relative affinity [z-score]": -0.102}
{"Sequence": "TTAGGTTTCGGAACTGGGTTAGTGCTA", "fitted relative affinity [z-score]": 7.96}
{"Sequence": "GACGGTTTCGTGACTGGGGACGTGCTA", "fitted relative affinity [z-score]": 3.45}
{"Sequence": "TTAGGTATCCTTATCCTTTTGTGCTAG", "fitted relative affinity [z-score]": 0.541}
{"Sequence": "TTACGTCTCCTTATCCTTTAGTGCTAG", "fitted relative affinity [z-score]": 1.56}
{"Sequence": "GAGGGTTCCCTTTTCCTGACGTGCTAG", "fitted relative affinity [z-score]": 0.349}
{"Sequence": "GTTGTACTTTCTATCTCTGTGTGCTAG", "fitted relative affinity [z-score]": 2.21}
{"Sequence": "TCATTATTAGTGACTCAGACTGTGCTA", "fitted relative affinity [z-score]": 0.0925}
{"data": "Set 2", "target": "Sal-like protein 4, full length isoform A (SALL4, Homo sapiens, UniProt Q9UJQ4, residues 1-1053)", "technique": "universal PBM", "molecule type": "double-stranded DNA, one strand shown", "medium": "in vitro", "concentration": "600 nM", "notes": "8-mer, flanks averaged, mean of replicates", "direction": "higher = stronger binding", "chain of UniProt Q9UJQ4 (whole entry, looked up)": "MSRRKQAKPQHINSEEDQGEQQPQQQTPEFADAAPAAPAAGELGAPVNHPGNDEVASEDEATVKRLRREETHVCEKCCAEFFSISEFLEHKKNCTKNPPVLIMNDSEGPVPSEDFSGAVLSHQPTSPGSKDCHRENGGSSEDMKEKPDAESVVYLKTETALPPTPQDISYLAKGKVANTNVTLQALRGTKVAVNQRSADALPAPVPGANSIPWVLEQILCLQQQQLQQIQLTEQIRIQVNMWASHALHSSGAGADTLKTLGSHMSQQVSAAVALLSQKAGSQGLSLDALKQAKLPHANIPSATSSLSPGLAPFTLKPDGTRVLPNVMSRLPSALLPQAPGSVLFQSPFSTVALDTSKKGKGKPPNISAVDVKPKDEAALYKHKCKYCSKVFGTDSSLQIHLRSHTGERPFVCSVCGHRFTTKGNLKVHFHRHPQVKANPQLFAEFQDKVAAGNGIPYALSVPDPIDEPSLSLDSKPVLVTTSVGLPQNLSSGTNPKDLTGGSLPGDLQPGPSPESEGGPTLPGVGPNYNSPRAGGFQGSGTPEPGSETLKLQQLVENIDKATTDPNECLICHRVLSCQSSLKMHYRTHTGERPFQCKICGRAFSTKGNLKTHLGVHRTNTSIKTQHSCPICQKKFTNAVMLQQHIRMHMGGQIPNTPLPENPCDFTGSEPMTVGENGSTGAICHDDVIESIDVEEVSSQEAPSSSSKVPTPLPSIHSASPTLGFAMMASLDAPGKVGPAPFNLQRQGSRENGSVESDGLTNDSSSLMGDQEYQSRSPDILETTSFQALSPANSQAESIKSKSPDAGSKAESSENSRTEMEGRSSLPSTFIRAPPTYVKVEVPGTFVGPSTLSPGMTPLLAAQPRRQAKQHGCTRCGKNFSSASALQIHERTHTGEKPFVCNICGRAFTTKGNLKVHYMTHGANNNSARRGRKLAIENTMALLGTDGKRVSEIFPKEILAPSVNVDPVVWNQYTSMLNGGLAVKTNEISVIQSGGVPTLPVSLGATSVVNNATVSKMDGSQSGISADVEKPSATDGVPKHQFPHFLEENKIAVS"}
{"Sequence": "AGAACATG", "E-score": 0.0757}
{"Sequence": "AATCATAA", "E-score": 0.451}
{"Sequence": "ACAGCGGT", "E-score": -0.117}
{"Sequence": "ACTGAGAC", "E-score": -0.047}
{"Sequence": "AGCTCTCA", "E-score": -0.153}
{"Sequence": "CGGATGAC", "E-score": -0.177}
{"Sequence": "TCTAGCAA", "E-score": 0.102}
{"Sequence": "GCTCAAGA", "E-score": -0.106}
{"Sequence": "AGCGCCCC", "E-score": -0.396}
{"data": "Set 3", "target": "CCNB3, cyclin fold, Cln2 fusion (human)", "technique": "yeast growth competition, sequencing", "medium": "yeast", "notes": "weak parent motif", "reference": "not given", "direction": "higher = stronger binding", "starting sequence": "RB1 docking peptide (human); PKPLKKLRFDIEG"}
{"Substitution": "PKPLKKLRMDIEG [F9M]", "normalised enrichment score": 0.0862}
{"Substitution": "PKPLKKLRDDIEG [F9D]", "normalised enrichment score": 0.0592}
{"Substitution": "PKPLKWLRFDIEG [K6W]", "normalised enrichment score": 0.0344}
{"Substitution": "PKPLKKLRFDIEK [G13K]", "normalised enrichment score": 0.332}
{"Substitution": "PKPLKKLRRDIEG [F9R]", "normalised enrichment score": -0.133}
{"Substitution": "PKPLKKLREDIEG [F9E]", "normalised enrichment score": -0.25}
{"Substitution": "PKPLEKLRFDIEG [K5E]", "normalised enrichment score": 0.0874}
{"data": "Mixed results"}
{"Molecule": "PhoQ, residues 284 288 289 292 302 303 SASVAL", "target": "PhoP, residues 12 14 15 18 19 STWGI (Escherichia coli, UniProt P23836)", "assay": "Sort-seq, measured: YFP reporter", "system": "E. coli", "setting": "PhoQ-PhoP variant library, added: 10 µM Mg2+", "how to read": "reference: high Mg2+ state, higher = stronger signaling", "quantity": "fold induction", "value": 1.35}
